Assay results of several laboratories.
Protocols differ between the studies behind these lines. “And” joins repeats or separate records; there may be more than shown. ± gives the spread as reported.
ALB: Albumin (ALB, Bos taurus, UniProt P02769)

The chains behind the UniProt entries cited, without tags or fusion partners. Residues count along the entry.
UniProt P02769, 25-607 limits assumed: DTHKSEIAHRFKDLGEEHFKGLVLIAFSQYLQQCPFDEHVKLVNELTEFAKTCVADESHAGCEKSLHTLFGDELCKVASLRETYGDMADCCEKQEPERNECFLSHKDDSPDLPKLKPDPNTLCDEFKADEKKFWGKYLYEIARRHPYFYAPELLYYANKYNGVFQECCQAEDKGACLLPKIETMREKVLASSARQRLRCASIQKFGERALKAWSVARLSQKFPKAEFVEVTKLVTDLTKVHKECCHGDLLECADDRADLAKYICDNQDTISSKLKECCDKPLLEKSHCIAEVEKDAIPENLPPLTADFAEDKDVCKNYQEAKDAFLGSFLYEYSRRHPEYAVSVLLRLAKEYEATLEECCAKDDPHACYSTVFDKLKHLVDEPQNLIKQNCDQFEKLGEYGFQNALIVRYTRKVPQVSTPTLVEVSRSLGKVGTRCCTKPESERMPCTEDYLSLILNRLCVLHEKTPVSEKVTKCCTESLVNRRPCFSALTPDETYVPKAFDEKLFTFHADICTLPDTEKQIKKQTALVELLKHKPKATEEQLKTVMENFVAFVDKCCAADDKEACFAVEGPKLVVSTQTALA

The EC50 of `NC12CC3CC(CC(C3)C1)C2` is reported as < 1 µM (Influenza A virus; viral replication, plaque size reduction; MDCK, A/Swine/Minnesota/34-0801/2011 (H1N2)).
`CNC(=O)Oc1cccc2c1OC(C)(C)C2`: “duration of hypothermia” 15 min (male ES1+/+ mice; subcutaneous, 1 mg/kg).
The HD50 of `CSCC[C@@H]1NC(=O)[C@H](CC(C)C)NC(=O)[C@H](CCCNC(=N)N)NC(=O)[C@H](CO)NC(=O)[C@@H]2CSSC[C@@H]3NC(=O)[C@H](CO)NC(=O)CNC(=O)[C@H]([C@@H](C)O)NC(=O)[C@H](CSSC[C@H](N)C(=O)N[C@@H](CCCCN)C(=O)NCC(=O)N[C@@H](CCCCN)C(=O)NCC(=O)N[C@@H](C)C(=O)N[C@@H](CCCCN)C(=O)N2)NC(=O)[C@H](CSSC[C@@H](C(N)=O)NC(=O)[C@H](CCCCN)NC(=O)CNC(=O)[C@H](CO)NC(=O)[C@H](CCCNC(=N)N)NC3=O)NC(=O)[C@H](CC(=O)O)NC(=O)[C@H](Cc2ccc(O)cc2)NC1=O` is reported as 4.2 mM and 4.23 mM (human erythrocytes; haemolysis; 1 h, 37 °C, 50% haemolysis).
For `Pillar[6]MaxQ`, “maximum tolerated concentration” read ≤ 0.03 mM (HEK293; cell viability, MTS; 24 h).
The CC50 of `Cc1cc(N)c2ccccc2[n+]1CCCCCCCCCC[n+]1c(C)cc(N)c2ccccc21` is reported as 15.3 µM (HEK293-RFP; cell viability).
For `CC(C)OP(=S)(OC(C)C)SCCNS(=O)(=O)c1ccccc1`, the mRNA level was > 5 fold (HepaRG; item: CYP3A4; concentration not given, 24 h; reference: untreated).
For `CC[C@H](C)[C@H](NC(=O)[C@H](Cc1ccc(O)cc1)NC(=O)[C@H](CO)NC(=O)[C@H](CCC(=O)O)NC(=O)[C@H](CC(N)=O)NC(=O)[C@H](CC(C)C)NC(=O)[C@H](C)NC(=O)[C@H](CCCCN)NC(=O)[C@@H](NC(=O)[C@@H](NC(=O)[C@H](CCC(N)=O)NC(=O)[C@H](CCC(N)=O)NC(=O)[C@H](CC(C)C)NC(=O)[C@H](CO)NC(=O)[C@H](CC(C)C)NC(=O)[C@H](CCSC)NC(=O)[C@H](CCC(=O)O)NC(=O)[C@H](Cc1ccc(O)cc1)NC(=O)[C@@H](NC(=O)[C@H](CC(C)C)NC(=O)[C@H](CC(=O)O)NC(=O)[C@H](CC(C)C)NC(=O)[C@H](CC(C)C)NC(=O)[C@@H](NC(=O)[C@@H](NC(=O)[C@H](CC(N)=O)NC(=O)[C@@H](NC(=O)[C@H](CCC(N)=O)NC(=O)[C@@H](NC(=O)[C@H](CC(C)C)NC(=O)[C@@H](N)CO)[C@@H](C)O)[C@@H](C)CC)[C@@H](C)O)[C@@H](C)O)[C@@H](C)O)C(C)C)C(C)C)C(=O)N[C@@H](CC(=O)O)C(=O)N[C@@H](CC(C)C)C(=O)N[C@@H](CCCCN)C(=O)N[C@@H](CCC(=O)O)C(=O)N[C@@H](CC(C)C)C(=O)O`, the selectivity index was > 1670 (MERS-CoV; Vero; reference: CC50 over IC50).
The therapeutic index of `C[C@H](c1cccc2ccccc12)N1CCC(C(=O)NCc2cccc(F)c2)CC1` is reported as > 18.5 (SARS-CoV; Vero E6; 48 h; reference: CC50 over EC50).
Under “surface body temperature”, `CCOP(=S)(OCC)Oc1ccc([N+](=O)[O-])cc1` is recorded as 30 °C (male ES1−/− mice; subcutaneous, 12.5 mg/kg, 6 h).
For `Fc1ccc(CNc2ncnc3ccc(F)cc23)cc1`, the CC50 was 19.3 µM (HEK293-RFP; cell viability).
For `CCCSc1nc(N[C@@H]2C[C@H]2c2ccc(F)c(F)c2)c2nnn([C@@H]3C[C@H](OCCO)[C@@H](O)[C@H]3O)c2n1`, the plasma concentration was 245 ± 391 ng/mL (STEMI patients, plasma; 180 mg loading dose, 2 h, together with: fentanyl).
`O=C(c1ccc(F)cc1F)N1CCN(c2ccc3nncn3n2)CC1` gave an IC50 of > 100 µM (ALB; binding, fluorescence quenching; pH 7.4).
`C[C@@H]1NC(=O)[C@@H]2CCCN2C(=O)[C@H](CC(N)=O)NC(=O)[C@H](Cc2c[nH]c3ccccc23)NC(=O)[C@@H]2CSSC[C@H](NC1=O)C(=O)NCC(=O)N[C@@H](CCCCN)C(=O)N[C@@H](Cc1c[nH]cn1)C(=O)N[C@@H](Cc1ccc(O)cc1)C(=O)N[C@H](C(N)=O)CSSC[C@H](NC(=O)CN)C(=O)N2`: “degradation to non-isomer products” 21.6 ± 0.65% (RP-HPLC; mouse serum 25%; 50 µM, 6 h, 37 °C).
`O=C(c1ccc(Cl)cc1)N1CCN(c2ccc3nncn3n2)CC1` gave an IC50 of > 100 µM (ALB; binding, fluorescence quenching; pH 7.4).
For `O=[As]c1ccccc1` (stereo not drawn), “lowest concentration causing detachment” read > 100 µM (CHO; cell detachment).

Excerpt of the above:
`O=C(c1ccc(F)cc1F)N1CCN(c2ccc3nncn3n2)CC1` gave an IC50 of > 100 µM (ALB; binding, fluorescence quenching; pH 7.4).
For `CCCSc1nc(N[C@@H]2C[C@H]2c2ccc(F)c(F)c2)c2nnn([C@@H]3C[C@H](OCCO)[C@@H](O)[C@H]3O)c2n1`, the plasma concentration was 245 ± 391 ng/mL (STEMI patients, plasma; 180 mg loading dose, 2 h, together with: fentanyl).
